Measured values pooled from the literature.
± marks the error that the study gave.
Action: inhibitor
relA residues 53-446: relA, residues 53-446 (Mycobacterium tuberculosis, UniProt P9WHG9)
Chain of UniProt P9WHG9 (53-446, looked up): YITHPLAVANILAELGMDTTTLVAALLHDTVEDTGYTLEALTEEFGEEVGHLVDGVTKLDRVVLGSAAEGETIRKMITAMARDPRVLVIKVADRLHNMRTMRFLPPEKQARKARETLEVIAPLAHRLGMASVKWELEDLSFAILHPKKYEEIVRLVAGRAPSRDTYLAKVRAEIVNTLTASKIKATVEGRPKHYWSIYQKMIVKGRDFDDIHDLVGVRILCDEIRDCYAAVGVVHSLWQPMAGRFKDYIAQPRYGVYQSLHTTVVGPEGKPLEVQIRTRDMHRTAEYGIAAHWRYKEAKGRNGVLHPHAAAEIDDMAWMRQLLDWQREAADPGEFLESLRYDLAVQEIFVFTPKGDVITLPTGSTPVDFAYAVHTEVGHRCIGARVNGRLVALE
tmk: Thymidylate kinase (tmk, Mycobacterium tuberculosis, UniProt P9WKE1)
Chain of UniProt P9WKE1 (whole entry, looked up): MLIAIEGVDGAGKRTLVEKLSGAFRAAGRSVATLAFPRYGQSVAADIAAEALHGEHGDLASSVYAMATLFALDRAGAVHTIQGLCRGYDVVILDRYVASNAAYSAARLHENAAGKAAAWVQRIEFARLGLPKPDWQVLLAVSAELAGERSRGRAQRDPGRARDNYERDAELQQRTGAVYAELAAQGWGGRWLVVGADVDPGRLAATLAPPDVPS
Chain of UniProt P22001 (whole entry, looked up): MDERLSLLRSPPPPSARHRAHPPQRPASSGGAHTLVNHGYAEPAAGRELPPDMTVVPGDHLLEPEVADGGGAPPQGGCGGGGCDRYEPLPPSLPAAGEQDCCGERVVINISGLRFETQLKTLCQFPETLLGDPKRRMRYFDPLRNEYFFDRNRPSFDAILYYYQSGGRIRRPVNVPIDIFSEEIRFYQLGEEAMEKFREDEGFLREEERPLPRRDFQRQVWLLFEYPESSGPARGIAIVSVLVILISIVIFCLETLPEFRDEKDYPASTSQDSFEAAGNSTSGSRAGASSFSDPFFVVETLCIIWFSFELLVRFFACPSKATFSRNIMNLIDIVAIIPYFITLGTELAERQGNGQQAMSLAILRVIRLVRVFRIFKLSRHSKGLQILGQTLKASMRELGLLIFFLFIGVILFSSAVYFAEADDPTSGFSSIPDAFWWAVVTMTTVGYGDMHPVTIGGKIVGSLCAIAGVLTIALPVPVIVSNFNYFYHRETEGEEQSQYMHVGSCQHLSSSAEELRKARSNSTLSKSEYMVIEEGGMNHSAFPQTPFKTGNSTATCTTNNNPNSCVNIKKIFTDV
Chain of UniProt P09668 (whole entry, looked up): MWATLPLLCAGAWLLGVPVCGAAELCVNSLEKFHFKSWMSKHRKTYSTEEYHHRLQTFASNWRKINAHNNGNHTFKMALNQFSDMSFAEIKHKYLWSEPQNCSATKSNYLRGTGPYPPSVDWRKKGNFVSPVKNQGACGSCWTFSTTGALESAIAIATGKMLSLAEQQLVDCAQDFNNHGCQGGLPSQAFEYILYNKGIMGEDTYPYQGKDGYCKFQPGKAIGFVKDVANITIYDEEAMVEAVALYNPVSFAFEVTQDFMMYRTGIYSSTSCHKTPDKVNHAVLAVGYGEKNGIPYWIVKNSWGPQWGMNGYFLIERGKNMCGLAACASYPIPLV
Chain of UniProt Q12809 (whole entry, looked up): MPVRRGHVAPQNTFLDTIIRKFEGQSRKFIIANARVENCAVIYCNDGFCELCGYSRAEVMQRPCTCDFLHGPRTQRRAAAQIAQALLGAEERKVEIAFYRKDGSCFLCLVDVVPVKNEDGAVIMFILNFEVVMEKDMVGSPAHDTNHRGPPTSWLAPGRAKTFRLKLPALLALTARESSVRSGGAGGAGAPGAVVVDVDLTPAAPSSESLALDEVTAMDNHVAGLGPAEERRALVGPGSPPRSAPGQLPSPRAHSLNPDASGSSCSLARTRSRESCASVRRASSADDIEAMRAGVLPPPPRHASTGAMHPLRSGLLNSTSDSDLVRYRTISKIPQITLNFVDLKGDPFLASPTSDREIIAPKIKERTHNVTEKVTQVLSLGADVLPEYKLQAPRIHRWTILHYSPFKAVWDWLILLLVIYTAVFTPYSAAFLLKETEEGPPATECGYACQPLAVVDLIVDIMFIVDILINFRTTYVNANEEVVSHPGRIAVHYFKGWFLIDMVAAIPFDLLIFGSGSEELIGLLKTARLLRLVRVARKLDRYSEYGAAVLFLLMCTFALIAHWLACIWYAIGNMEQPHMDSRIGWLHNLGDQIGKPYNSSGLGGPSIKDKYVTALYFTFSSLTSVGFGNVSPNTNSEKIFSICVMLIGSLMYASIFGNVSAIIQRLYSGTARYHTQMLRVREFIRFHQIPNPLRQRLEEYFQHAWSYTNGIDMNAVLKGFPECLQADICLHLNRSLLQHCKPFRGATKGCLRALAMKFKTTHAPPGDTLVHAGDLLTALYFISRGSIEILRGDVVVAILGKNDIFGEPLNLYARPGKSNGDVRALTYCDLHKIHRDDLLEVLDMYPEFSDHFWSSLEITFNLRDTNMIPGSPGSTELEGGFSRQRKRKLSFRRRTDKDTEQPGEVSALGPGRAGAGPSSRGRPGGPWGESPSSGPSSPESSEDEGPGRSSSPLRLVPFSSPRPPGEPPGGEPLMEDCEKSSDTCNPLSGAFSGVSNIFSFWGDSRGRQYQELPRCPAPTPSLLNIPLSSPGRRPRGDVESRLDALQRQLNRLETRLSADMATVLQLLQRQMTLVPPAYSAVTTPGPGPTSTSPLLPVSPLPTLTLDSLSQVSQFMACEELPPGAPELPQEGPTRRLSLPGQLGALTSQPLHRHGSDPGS

`CC[C@H](C)[C@@H]1NC(=O)[C@@H](NC(=O)CNC(=O)[C@@H](N)CCCCN)CSSC[C@@H]2NC(=O)[C@@H]3CSSC[C@H](NC(=O)[C@H](CCC(N)=O)NC(=O)[C@H](CC(C)C)NC(=O)[C@@H]4CCCN4C(=O)[C@H](CCCNC(=N)N)NC2=O)C(=O)N[C@@H](CCCCN)C(=O)NCC(=O)N2CCC[C@H]2C(=O)N[C@@H](CO)C(=O)N2CCC[C@H]2C(=O)N[C@@H](CCCCN)C(=O)N[C@@H](CCC(N)=O)C(=O)N[C@@H](CCCCN)C(=O)N[C@@H](CCCCN)C(=O)N[C@H](C(=O)N[C@H](C(=O)N[C@@H](CCCCN)C(=O)N[C@H](C(=O)O)C(C)C)[C@@H](C)O)CSSC[C@H](NC(=O)[C@H](Cc2c[nH]c4ccccc24)NC(=O)[C@H](CCCCN)NC(=O)CNC(=O)[C@H](CCC(=O)O)NC(=O)[C@H](CCCCN)NC1=O)C(=O)N1CCC[C@H]1C(=O)N[C@@H](CCCCN)C(=O)N[C@@H]([C@@H](C)O)C(=O)N[C@@H](C)C(=O)N1CCC[C@H]1C(=O)N3` gave an IC50 of 0.381 µM (Potassium voltage-gated channel subfamily A member 3 (KCNA3, Homo sapiens, UniProt P22001); ion current, patch clamp; pH 7.4).
With `N=C1C(=Cc2ccc(SCc3ccc(Cl)cc3)o2)C(=O)N=C2SC(c3cccs3)=NN12` the IC50 was 5.01 µM (relA residues 53-446; enzyme activity, fluorescence polarization).
`CC(C)CC(C(=O)N1CC2(CC1C#N)C(=O)Nc1ccccc12)N(C)C(=O)c1cc2c(F)cc(F)c(F)c2[nH]1` (stereo not drawn) has an IC50 of > 100 µM (Pro-cathepsin H (Homo sapiens, UniProt P09668); enzyme activity).
`COc1cc2c(cc1NC(=O)c1cncn1C)C[C@H]1[C@H]3CCCC[C@@]23CCN1C` has an IC50 of > 30 µM (Voltage-gated inwardly rectifying potassium channel KCNH2 (KCNH2, Homo sapiens, UniProt Q12809); radioligand binding).
`CCCCCc1cc(O)c2c(c1)OC(C)(C)C1=C2C(OC)C(C)(O)CC1` (stereo not drawn) gave an IC50 of 700 ± 50 µM (rat intestinal maltase; rat intestinal acetone powder; 10 min, 37 °C, together with: maltose 10 mM).
`CCC1=NN2C(=N)C(=Cc3ccc(Sc4ccc(C)cc4)o3)C(=O)N=C2S1` gave an IC50 of 63.1 µM (relA residues 53-446; enzyme activity, fluorescence polarization).
With `CCCc1cc(O)c2c(c1)OC(C)(C)c1ccc(C)cc1-2` the IC50 was 380 ± 10 µM (rat intestinal maltase; rat intestinal acetone powder; 10 min, 37 °C, together with: maltose 10 mM).
With `CCOC(=O)C1=C(C)NC(=NN=C2C(=O)Nc3ccc(C)cc32)NC1c1ccc(F)cc1` (stereo not drawn) the IC50 was 0.104 µM (tmk; enzyme activity, absorbance).
With `Fc1cccc(CN2CCN(c3ccccc3)CC2)c1OCC1CC1` the IC50 was 15.8 µM (relA residues 53-446; enzyme activity, fluorescence polarization).
`CCOC(=O)C1=C(C)NC(=NN=C2C(=O)Nc3ccccc32)NC1c1ccc(F)cc1` (stereo not drawn) has an IC50 of 0.524 µM (tmk; enzyme activity, absorbance).
`Cc1ccc(C(=O)OC(C)C)c(N2CCN(Cc3ccccc3OC(F)F)CC2)n1` has an IC50 of 10 µM (relA residues 53-446; enzyme activity, fluorescence polarization).
For `CCCCCc1cc(O)c2c(c1)OC(C)(C)[C@@H]1CCC(C)=C[C@@H]21`, the IC50 was 360 ± 60 µM (rat intestinal maltase; rat intestinal acetone powder; 10 min, 37 °C, together with: maltose 10 mM).

For quick reference, copied from above:
With `Fc1cccc(CN2CCN(c3ccccc3)CC2)c1OCC1CC1` the IC50 was 15.8 µM (relA residues 53-446; enzyme activity, fluorescence polarization).
